Measurements collected from several papers.
Protocols differ between the studies behind these lines. ± marks the error that the study gave.
Sctr: Sctr (Rattus norvegicus, UniProt P23811)
Sequence of UniProt P23811 (whole entry, looked up): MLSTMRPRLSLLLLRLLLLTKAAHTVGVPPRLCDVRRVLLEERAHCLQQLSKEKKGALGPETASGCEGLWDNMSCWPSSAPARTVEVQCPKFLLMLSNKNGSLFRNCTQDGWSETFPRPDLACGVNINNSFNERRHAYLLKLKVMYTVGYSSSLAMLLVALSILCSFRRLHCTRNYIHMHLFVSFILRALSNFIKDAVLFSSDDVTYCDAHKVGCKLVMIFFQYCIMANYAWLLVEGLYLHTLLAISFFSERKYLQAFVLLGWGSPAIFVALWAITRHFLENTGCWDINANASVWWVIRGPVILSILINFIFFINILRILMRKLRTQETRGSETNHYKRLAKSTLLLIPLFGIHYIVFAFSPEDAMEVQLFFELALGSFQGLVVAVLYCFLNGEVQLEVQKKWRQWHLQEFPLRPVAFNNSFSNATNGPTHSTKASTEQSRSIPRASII
Sequence of UniProt O95838 (whole entry, looked up): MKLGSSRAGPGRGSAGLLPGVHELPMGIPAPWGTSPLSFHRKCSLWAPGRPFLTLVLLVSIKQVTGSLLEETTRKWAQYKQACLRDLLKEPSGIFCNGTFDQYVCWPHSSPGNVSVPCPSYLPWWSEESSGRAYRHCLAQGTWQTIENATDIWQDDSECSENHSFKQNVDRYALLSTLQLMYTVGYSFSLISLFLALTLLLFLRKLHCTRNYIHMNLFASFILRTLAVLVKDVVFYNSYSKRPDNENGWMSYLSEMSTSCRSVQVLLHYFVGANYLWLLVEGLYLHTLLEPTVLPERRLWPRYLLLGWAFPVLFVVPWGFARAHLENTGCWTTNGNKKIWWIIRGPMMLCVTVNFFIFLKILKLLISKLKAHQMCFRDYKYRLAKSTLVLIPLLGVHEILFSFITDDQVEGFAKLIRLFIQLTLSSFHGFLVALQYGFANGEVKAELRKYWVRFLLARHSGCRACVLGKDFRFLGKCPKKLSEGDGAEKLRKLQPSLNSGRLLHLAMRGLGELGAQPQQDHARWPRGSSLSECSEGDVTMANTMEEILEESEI
Sequence of UniProt O15552 (whole entry, looked up): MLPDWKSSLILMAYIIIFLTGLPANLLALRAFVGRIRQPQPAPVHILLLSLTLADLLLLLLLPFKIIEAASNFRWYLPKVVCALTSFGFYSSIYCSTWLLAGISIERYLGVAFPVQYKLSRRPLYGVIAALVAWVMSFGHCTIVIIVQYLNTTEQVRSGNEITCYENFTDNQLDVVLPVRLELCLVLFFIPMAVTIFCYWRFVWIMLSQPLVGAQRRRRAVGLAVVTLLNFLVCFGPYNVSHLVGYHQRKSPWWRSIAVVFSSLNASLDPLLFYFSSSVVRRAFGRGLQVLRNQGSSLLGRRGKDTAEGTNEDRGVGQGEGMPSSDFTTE
Sequence of UniProt P08510 (whole entry, looked up): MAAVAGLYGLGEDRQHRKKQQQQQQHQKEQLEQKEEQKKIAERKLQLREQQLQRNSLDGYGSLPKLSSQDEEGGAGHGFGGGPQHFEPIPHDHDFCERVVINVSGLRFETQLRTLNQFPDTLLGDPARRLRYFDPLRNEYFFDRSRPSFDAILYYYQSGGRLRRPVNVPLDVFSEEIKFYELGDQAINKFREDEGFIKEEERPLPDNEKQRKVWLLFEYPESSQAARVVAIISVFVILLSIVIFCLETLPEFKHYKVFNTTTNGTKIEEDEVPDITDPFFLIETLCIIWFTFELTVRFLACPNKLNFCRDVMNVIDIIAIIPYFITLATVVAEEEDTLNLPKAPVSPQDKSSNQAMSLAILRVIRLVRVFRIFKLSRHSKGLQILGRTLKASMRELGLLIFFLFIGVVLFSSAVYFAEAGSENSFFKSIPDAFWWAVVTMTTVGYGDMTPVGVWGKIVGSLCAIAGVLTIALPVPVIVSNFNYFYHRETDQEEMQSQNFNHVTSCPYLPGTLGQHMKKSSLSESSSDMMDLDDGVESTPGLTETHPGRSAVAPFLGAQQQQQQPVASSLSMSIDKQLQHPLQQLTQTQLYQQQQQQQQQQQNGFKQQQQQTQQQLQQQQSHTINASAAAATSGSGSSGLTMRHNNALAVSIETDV
Sequence of UniProt P30550 (whole entry, looked up): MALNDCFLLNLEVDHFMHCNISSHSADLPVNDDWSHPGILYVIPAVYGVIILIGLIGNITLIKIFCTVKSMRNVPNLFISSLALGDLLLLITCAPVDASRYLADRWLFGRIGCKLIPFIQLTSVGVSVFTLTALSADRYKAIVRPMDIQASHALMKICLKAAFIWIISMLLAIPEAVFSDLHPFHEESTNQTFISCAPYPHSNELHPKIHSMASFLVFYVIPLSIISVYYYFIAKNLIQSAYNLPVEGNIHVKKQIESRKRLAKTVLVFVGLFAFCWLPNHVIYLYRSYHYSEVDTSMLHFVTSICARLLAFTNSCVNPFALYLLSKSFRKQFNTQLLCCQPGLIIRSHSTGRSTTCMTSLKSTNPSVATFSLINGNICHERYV
Sequence of UniProt P11362 (whole entry, looked up): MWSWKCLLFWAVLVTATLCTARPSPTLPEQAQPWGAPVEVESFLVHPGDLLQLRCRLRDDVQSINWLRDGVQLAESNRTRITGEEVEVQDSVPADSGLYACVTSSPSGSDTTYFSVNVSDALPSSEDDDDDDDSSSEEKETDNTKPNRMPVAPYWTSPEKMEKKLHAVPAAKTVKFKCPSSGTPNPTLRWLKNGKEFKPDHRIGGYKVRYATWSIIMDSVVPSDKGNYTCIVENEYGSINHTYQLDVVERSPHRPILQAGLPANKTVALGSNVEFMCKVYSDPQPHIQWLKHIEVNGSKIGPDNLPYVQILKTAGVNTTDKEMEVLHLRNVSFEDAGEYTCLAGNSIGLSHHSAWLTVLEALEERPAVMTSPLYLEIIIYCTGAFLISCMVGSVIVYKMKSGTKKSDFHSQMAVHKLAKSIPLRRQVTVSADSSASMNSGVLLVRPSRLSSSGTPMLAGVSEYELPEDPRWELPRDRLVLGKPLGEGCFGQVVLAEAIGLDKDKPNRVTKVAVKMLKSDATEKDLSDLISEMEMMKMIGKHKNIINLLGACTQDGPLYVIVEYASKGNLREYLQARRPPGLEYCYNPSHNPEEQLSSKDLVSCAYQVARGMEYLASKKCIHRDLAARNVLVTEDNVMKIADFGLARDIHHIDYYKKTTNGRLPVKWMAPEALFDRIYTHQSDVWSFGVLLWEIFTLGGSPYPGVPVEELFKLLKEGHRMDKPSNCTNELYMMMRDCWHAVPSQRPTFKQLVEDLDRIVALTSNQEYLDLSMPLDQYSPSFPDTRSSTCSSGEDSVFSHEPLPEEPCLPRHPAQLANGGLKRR
Sequence of UniProt P41212 (whole entry, looked up): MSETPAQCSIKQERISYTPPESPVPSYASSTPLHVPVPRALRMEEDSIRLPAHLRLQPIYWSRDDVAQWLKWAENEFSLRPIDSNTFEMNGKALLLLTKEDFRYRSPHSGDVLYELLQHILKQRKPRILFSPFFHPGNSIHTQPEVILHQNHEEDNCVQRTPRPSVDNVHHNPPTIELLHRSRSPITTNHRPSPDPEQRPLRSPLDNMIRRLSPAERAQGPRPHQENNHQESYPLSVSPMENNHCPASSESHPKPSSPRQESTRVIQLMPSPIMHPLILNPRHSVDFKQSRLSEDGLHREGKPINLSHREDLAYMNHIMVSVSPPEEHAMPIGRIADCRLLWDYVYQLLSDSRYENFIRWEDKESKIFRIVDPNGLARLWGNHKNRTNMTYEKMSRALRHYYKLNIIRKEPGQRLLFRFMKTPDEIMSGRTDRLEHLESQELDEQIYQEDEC
Sequence of UniProt P43116 (whole entry, looked up): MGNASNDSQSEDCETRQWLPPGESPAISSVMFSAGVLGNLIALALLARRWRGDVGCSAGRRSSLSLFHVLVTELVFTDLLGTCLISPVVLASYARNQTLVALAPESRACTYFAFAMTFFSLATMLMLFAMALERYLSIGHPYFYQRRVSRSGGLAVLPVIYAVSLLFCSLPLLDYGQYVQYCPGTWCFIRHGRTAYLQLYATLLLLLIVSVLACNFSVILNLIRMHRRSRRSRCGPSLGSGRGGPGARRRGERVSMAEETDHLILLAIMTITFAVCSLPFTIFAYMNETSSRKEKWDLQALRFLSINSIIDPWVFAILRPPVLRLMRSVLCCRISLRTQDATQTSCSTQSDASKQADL
Sequence of UniProt P32241 (whole entry, looked up): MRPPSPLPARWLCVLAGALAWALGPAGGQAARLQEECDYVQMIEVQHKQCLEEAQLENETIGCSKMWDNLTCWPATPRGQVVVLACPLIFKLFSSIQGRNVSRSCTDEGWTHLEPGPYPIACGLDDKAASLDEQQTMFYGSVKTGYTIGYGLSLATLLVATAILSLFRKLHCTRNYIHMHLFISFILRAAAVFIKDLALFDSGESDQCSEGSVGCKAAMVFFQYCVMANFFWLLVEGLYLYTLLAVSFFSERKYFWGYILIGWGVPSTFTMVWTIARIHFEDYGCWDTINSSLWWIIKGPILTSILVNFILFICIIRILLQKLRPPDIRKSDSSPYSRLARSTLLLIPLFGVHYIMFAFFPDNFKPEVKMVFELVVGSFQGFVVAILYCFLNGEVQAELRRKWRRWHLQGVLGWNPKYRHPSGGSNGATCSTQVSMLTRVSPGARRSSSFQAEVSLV

The EC50 of `CC[C@H](C)[C@H](NC(=O)[C@H](Cc1ccccc1)NC(=O)[C@H](CC(=O)O)NC(=O)[C@H](CCCNC(=N)N)NC(=O)[C@H](C)NC(=O)[C@H](C)NC(=O)[C@H](CC(C)C)NC(=O)[C@H](CC(N)=O)NC(=O)[C@H](CC(=O)O)NC(=O)[C@H](CC(C)C)NC(=O)[C@@H](NC(=O)[C@@H](NC(=O)[C@H](CC(N)=O)NC(=O)[C@H](CCSC)NC(=O)[C@H](CCC(=O)O)NC(=O)[C@H](CC(=O)O)NC(=O)[C@H](CO)NC(=O)[C@H](Cc1ccccc1)NC(=O)[C@H](CO)NC(=O)[C@@H](C)NC(=O)[C@H](CC(=O)O)NC(=O)[C@H](C)NC(=O)[C@@H](N)Cc1c[nH]cn1)[C@@H](C)O)[C@@H](C)CC)C(=O)N[C@@H](CC(N)=O)C(=O)N[C@@H](Cc1c[nH]c2ccccc12)C(=O)N[C@@H](CC(C)C)C(=O)N[C@H](C(=O)N[C@@H](CCC(N)=O)C(=O)N[C@H](C(=O)N[C@@H](CCCCN)C(=O)N[C@H](C(=O)N[C@H](C(=O)N[C@@H](CC(=O)O)C(N)=O)[C@@H](C)O)[C@@H](C)CC)[C@@H](C)O)[C@@H](C)CC` is reported as 0.00015 µM (GLP2R (Homo sapiens, UniProt O95838); agonist).
With `CC[C@H](C)[C@H](NC(=O)CNC(=O)C1CCN(C(=O)[C@H](CO)NC(=O)[C@@H](N)Cc2c[nH]cn2)CC1)C(=O)N[C@@H](Cc1ccccc1)C(=O)N[C@H](C(=O)N[C@@H](CC(=O)O)C(=O)N[C@@H](CO)C(=O)N[C@@H](Cc1ccc(O)cc1)C(=O)N[C@@H](CO)C(=O)N[C@@H](CCCNC(=N)N)C(=O)N[C@@H](Cc1ccc(O)cc1)C(=O)N[C@@H](CCCNC(=N)N)C(=O)N[C@@H](CCCCN)C(=O)NC(C)(C)C(=O)N[C@@H](C)C(=O)N[C@@H](C)C(=O)N[C@H](C(=O)N[C@@H](CCCCN)C(=O)N[C@@H](CCCCN)C(=O)N[C@@H](Cc1ccc(O)cc1)C(=O)N[C@@H](CC(C)C)C(=O)N[C@@H](C)C(=O)N[C@@H](C)C(=O)N[C@H](C(=O)N[C@@H](CC(C)C)C(=O)NC(C)(C)C(=O)N[C@@H](CCCCN)C(=O)N[C@@H](CCCNC(=N)N)C(=O)N[C@@H](Cc1ccc(O)cc1)C(=O)N[C@@H](CCCCN)C(=O)N[C@@H](CCC(N)=O)C(=O)N[C@@H](CCCCN)C(=O)N[C@H](C(=O)N[C@@H](CCCCN)C(=O)N[C@@H](CC(N)=O)C(=O)N[C@H](CCCCN)C(N)=O)C(C)C)C(C)C)C(C)C)[C@@H](C)O` the EC50 was > 1 µM (VIPR1 (Homo sapiens, UniProt P32241); cAMP production, agonist; PANC-1 transfected with receptor).
`O=C(O)/C=C/c1cccc(NC(=O)c2cc(-c3cccc(F)c3)ccc2F)c1` has an EC50 of 0.00631 µM (PTGER2 (Homo sapiens, UniProt P43116); calcium signal, agonist, fluorescence).
For `CCC(=O)Nc1cccc(CN2C(=O)N(c3c(Cl)c(OC)cc(OC)c3Cl)Cc3cnc(NCCCCN(CC)CC)nc32)c1`, the EC50 was 0.34 µM (FGFR1/Transcription factor ETV6 (Homo sapiens, UniProt P11362+P41212); cell proliferation, MTT; Ba/F3; 48 h).
For `CC(C)C[C@H](NC(=O)CNC(=O)[C@H](CCC(N)=O)NC(=O)[C@H](CC(C)C)NC(=O)[C@H](CC(C)C)NC(=O)[C@H](CCCNC(=N)N)NC(=O)[C@H](CCC(N)=O)NC(=O)[C@H](CC(C)C)NC(=O)[C@H](CCCNC(=N)N)NC(=O)[C@H](C)NC(=O)[C@H](CO)NC(=O)[C@H](CC(=O)O)NC(=O)[C@H](CCC(N)=O)NC(=O)[C@H](C)NC(=O)[C@H](CCCNC(=N)N)NC(=O)[C@H](CO)NC(=O)[C@H](CC(C)C)NC(=O)[C@H](CCC(=O)O)NC(=O)[C@H](CO)NC(=O)[C@@H](NC(=O)[C@H](Cc1ccccc1)NC(=O)[C@@H](NC(=O)CNC(=O)[C@H](CC(=O)O)NC(=O)[C@H](CO)NC(=O)[C@@H](N)Cc1c[nH]cn1)[C@@H](C)O)[C@@H](C)O)C(=O)N[C@H](C(N)=O)C(C)C`, the EC50 was 0.0008 ± 0.0002 µM (Sctr; cAMP production, agonist; CHO-SecR; 30 min, 37 °C, together with: 1 mM IBMX).
`CCCC[C@H](NC(=O)[C@H](Cc1ccccc1)NC(=O)[C@H](Cc1c[nH]cn1)NC(=O)CCNC(=O)[C@@H](NC(=O)[C@H](C)NC(=O)[C@H](Cc1c[nH]c2ccccc12)NC(=O)[C@H](CC(N)=O)NC(=O)[C@H](N)Cc1ccc(O)cc1)C(C)C)C(N)=O` has an EC50 of 0.00069 µM (GRPR (Homo sapiens, UniProt P30550); inositol phosphate, agonist).
`N#Cc1cc(NS(=O)(=O)c2ccccc2OC(F)(F)F)ccc1Cl` has an EC50 of 35 µM (Sh (Drosophila melanogaster, UniProt P08510); conductance-voltage shift, two-electrode voltage clamp; Xenopus oocytes).
`CC(C)(C)C(=O)O` has an EC50 of 6610 µM (FFAR2 (Homo sapiens, UniProt O15552); agonist).
`CC(C)C[C@H](NC(=O)[C@H](C)NC(=O)[C@H](CCC(N)=O)NC(=O)[C@H](CC(C)C)NC(=O)[C@H](CC(C)C)NC(=O)[C@H](CCCNC(=N)N)NC(=O)[C@H](CCC(N)=O)NC(=O)[C@H](CC(C)C)NC(=O)[C@H](CCCNC(=N)N)NC(=O)[C@H](C)NC(=O)[C@H](CO)NC(=O)[C@H](CC(=O)O)NC(=O)[C@H](CCC(N)=O)NC(=O)[C@H](CC(C)C)NC(=O)[C@H](CCCNC(=N)N)NC(=O)[C@H](CO)NC(=O)[C@H](CC(C)C)NC(=O)[C@H](CCC(=O)O)NC(=O)[C@H](CO)NC(=O)[C@@H](NC(=O)[C@H](Cc1ccccc1)NC(=O)[C@@H](NC(=O)CNC(=O)[C@H](CC(=O)O)NC(=O)[C@H](CO)NC(=O)[C@@H](N)Cc1c[nH]cn1)[C@@H](C)O)[C@@H](C)O)C(=O)N[C@H](C(N)=O)C(C)C` has an EC50 of 0.0002 ± 6e-05 µM (Sctr; cAMP production, agonist; CHO-SecR; 30 min, 37 °C, together with: 1 mM IBMX).
With `COc1cc(-c2cnc3nc2NCCCNS(=O)(=O)c2cc(ccc2OC)N3)ccc1F` the EC50 was 0.5 µM (EPHA5 (Homo sapiens, UniProt P54756); target engagement in cells, BRET).
